Measurements collected from several papers.
Every numbered part comes from another study and shows a few of its results, in no order. Positions count from the first letter of the parent shown.

Set 1
Target: RNA binding protein fox-1 homolog 2, RRM domain, GST-SBP tag (RBFOX2, Homo sapiens, UniProt O43251-10, residues 100-194)
Technique: RNA Bind-n-Seq
Form: RNA
Matrix: in vitro
Tested at: 365 nM
Notes: natural RNA segment, single round, ends assumed
Relative to: no-protein control
Direction: higher = stronger binding
Shared flanks, not repeated: GGGAGUUCUACAGUCCGACGAUC … UGGAAUUCUCGGGUGCCAA
Residues (chain): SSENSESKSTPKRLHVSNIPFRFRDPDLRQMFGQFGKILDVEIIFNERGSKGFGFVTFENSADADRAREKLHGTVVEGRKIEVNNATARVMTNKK
Strand | RBNS enrichment (R)
UUGGGAGCUAUUGAGCCACCUGGGAUGAGAUGACACAAGGCACUCCUACCACUGAGCGCCUUUGCCAGGUCCAGCCUGGGCUCAGGUUCCAAGACUCAGCUGCCUAAUCC | 0.331
CAUAGUUAGAAUCACUAUGCAUCUGUCUGUCCACACAGGAAGUGCUAUAGCUCUCAAGUGCUCUAGAGGCAGUUGGAAAGGAAGGAAUGCAUGCUUAUGUGAGCAGCUGG | 1.08
UUUCCCUCCCUCACUUUUUCCUUUGUAAACACUCAUGACUGCUUCUCUGUCUCGAGUCAUCUCUGCAUUAACUCCCCUUCGUGGUCACUAGAGGGCUCUCUGAUGCCUUC | 0.883
GAAAAUAUGUUUUUGCUGCUUUAUAUAAAAGUGAUUUUUAAGUUAUUUUAAAGAUCUAGCUUCCCUAUUUGAUUAAGAUUGCCAUCUUGCUUUUGGGCAGAAAAAAGUAG | 0.514
AUAGGGAUGGAGUGAGGUGACAGUGGGAAGGGACACAACUACAUGGCCUUUCAUGACCCUGGCUUACUGUGUAAAUGCUGUGCCCUUGGGUACUGGAUAGGAACACUGAG | 0.54
AUUUUGAUAUUAACACCGGCAUAAAUCUAUUUUUGCUACCAGAUGAUAGCUAUUUUCAUUUGCUCUAUUUUCCUCUGCAUUGUACUAAUCUGUUACUCAGUGUUAGUCUU | 0.73
GCCCCUCCUAGUUCUUCAUCCCACUCCAACUCUUCCCCCUCUCCCAGUUGUCCCGAUUGUAACUCAAAGGGUGGAAUAUCAAGGUCGUUUUUUUCAUUCCAUGUGCCCAG | 1.36
GAGUUUAAAACAACAACCCCAACAACAGAAGCCUUGGCAAAGAGGAAUAAGUGAUCAGCAAGUGAACACACUCUAUGUCAACUCUCCUUUUAUCCAGCUGAGAUUUAUGG | 0.619

Set 2
Target: TAR DNA-binding protein 43, full length, His tag (TARDBP, Homo sapiens, UniProt Q13148, residues 1-414)
Technique: RNA Bind-n-Seq
Form: RNA
Matrix: in vitro
Tested at: 20 nM
Notes: 6-mer, flanks averaged, single round
With: 150 mM LiCl
Relative to: input library
Direction: higher = stronger binding
Strand | 6-mer enrichment (R)
UUCGGA | 0.942
GUACAA | 0.855
UUCGAU | 0.852
AUUCAA | 0.859
ACUCCU | 0.971
UGAAAA | 0.845
GGAAUA | 0.916
UAUUCA | 0.916

Set 3
Target: NFE2L2, bZIP domain (human)
Technique: DHFR protein complementation
Matrix: yeast
Notes: single substitutions, most at no-binding floor
Relative to: wild-type JUN-FOS pair
Direction: higher = stronger binding
Parent: JUN, bZIP domain (human); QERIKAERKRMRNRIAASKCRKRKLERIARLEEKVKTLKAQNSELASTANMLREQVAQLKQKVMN; partner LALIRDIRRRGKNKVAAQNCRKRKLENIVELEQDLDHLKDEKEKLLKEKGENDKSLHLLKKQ
Change | binding fitness
K34L | -1.32 natural log
A29R | -1.46 natural log
Q41T | -1.36 natural log
E44A | -1.51 natural log
A57H | -1.1 natural log
A29W | -1.44 natural log
Q55S | -1.56 natural log
K36E | -1.57 natural log

Mixed results
Molecule | target | assay | system | setting | measurement | result
PTDYAKPQY | HLA class I histocompatibility antigen, A alpha chain, allele A*80:01 (Homo sapiens, UniProt P04439) | peptide-MHC binding | peptide | concentration not given | binding | inactive

Excerpt of the above (set 1):
Strand | RBNS enrichment (R)
CAUAGUUAGAAUCACUAUGCAUCUGUCUGUCCACACAGGAAGUGCUAUAGCUCUCAAGUGCUCUAGAGGCAGUUGGAAAGGAAGGAAUGCAUGCUUAUGUGAGCAGCUGG | 1.08
UUUCCCUCCCUCACUUUUUCCUUUGUAAACACUCAUGACUGCUUCUCUGUCUCGAGUCAUCUCUGCAUUAACUCCCCUUCGUGGUCACUAGAGGGCUCUCUGAUGCCUUC | 0.883
GAAAAUAUGUUUUUGCUGCUUUAUAUAAAAGUGAUUUUUAAGUUAUUUUAAAGAUCUAGCUUCCCUAUUUGAUUAAGAUUGCCAUCUUGCUUUUGGGCAGAAAAAAGUAG | 0.514
AUAGGGAUGGAGUGAGGUGACAGUGGGAAGGGACACAACUACAUGGCCUUUCAUGACCCUGGCUUACUGUGUAAAUGCUGUGCCCUUGGGUACUGGAUAGGAACACUGAG | 0.54
